Assay results gathered from unrelated publications.
Each line is one published result; not all experiments were run side by side. Values joined by “and” are separate records of one study, mostly repeats; a detail may differ. Numbers after ± are the reported error.

SMILES = CCCCNCCc1c[nH]c2cccc(O)c12.O=C(O)/C=C/C(=O)O; system = C57BL/6J mice; conditions = subcutaneous, 0.1 mg/kg, 30 min; quantity = distance travelled; value = 2390 ± 201 cm
SMILES = NCC1(CC(=O)O)CCCCC1; assay = mechanical allodynia, von Frey; system = rat, chronic constriction injury; conditions = oral, tested 10 to 300 mg/kg; quantity = minimum efficacious dose; value = 30 mg/kg
SMILES = NCC1(CC(=O)O)CCCCC1; system = mouse, formalin paw test; conditions = oral, 300 mg/kg, 45 min before formalin, late phase; how to read = direction not given; quantity = licking score; value = 4.4
SMILES = Cc1ncc2n1-c1ccc(Cl)cc1C(c1ccccc1F)=NC2; assay = self-administration, progressive-ratio schedule; system = rhesus monkey; conditions = intravenous; quantity = ED50; value = 0.007 mg/kg/injection
SMILES = C=CCN1CC[C@]23c4c5ccc(O)c4O[C@H]2C(=O)CC[C@@]3(O)[C@H]1C5; assay = antinociception, hot plate; system = male ICR-CD1 mice; conditions = subcutaneous, 5 mg/kg, 30 min; quantity = maximum possible effect; value = -1.37% and 7.96% and 4.97% and 2.43% and 3.75% and -26.9%
SMILES = COc1cc(CCNC(C)c2ccccc2O)c(OC)cc1C#N.Cl (stereo not shown); system = male C57BL/6J mice; conditions = subcutaneous, 30 min session; quantity = ED50; value = 1.86 mg/kg
SMILES = CC(C)NCCc1c[nH]c2cccc(O)c12.O=C(O)/C=C/C(=O)O; system = C57BL/6J mice; conditions = subcutaneous, 1 mg/kg, 30 min; quantity = distance travelled; value = 2410 ± 227 cm
SMILES = C[C@]12CC[C@H]3[C@@H](CC=C4CC(O)CC[C@@]43CO)[C@@H]1CCC2O (stereo partly shown); assay = item: CCL3; system = rat, GAN diet-induced MASH, plasma; conditions = dose not given; how to read = baseline: GAN diet plus vehicle; quantity = fold reduction; value = ~2.2 fold
SMILES = CC(C)(C)NCCc1c[nH]c2cccc(O)c12.CC(C)(C)NCCc1c[nH]c2cccc(O)c12.O=C(O)/C=C/C(=O)O; system = C57BL/6J mice; conditions = subcutaneous, 0.3 mg/kg; quantity = head twitch count; value = 9 ± 1.6
SMILES = CC1(C)C(C(=O)c2cn(CCCCCF)c3ccccc23)C1(C)C; assay = Δ9-THC discrimination; system = C57BL/6J male mice; how to read = baseline: Δ9-THC; quantity = potency; value = 1.5 fold
SMILES = NCCc1ccc(Oc2ccc(O)cc2)c(I)c1; system = wild-type mice; conditions = ip, 25 mg/kg, 30 min; how to read = baseline: saline; quantity = maximum body temperature change; value = -2.7 ± 0.4 °C
SMILES = O=C(O)/C=C/C(=O)O.Oc1cccc2[nH]cc(CCNC3CCCCC3)c12; system = C57BL/6J mice; conditions = subcutaneous, 3 mg/kg; quantity = head twitch count; value = 5.5 ± 0.6
SMILES = COC(=O)[C@H]1[C@@H](OC(=O)c2ccccc2)C[C@@H]2CC[C@H]1N2C; assay = locomotor activity, item: total distance traveled; system = C57BL/6J mice (male); conditions = subcutaneous; quantity = ED50; value = 4.75 ± 0.43 mg/kg
